Measurements collected from several papers.
Every numbered part comes from another study and shows a few of its results, in no order. Positions count from the first letter of the parent shown.

Series 1
Target: RING finger protein unkempt homolog, zinc fingers 1-6, GST-SBP tag (UNK, Homo sapiens, UniProt Q9C0B0, residues 30-357)
Method: RNA Bind-n-Seq
Molecule type: RNA
Medium: in vitro
Tested at: not given
Setting: RNA with constant flanks, ends assumed
Reference: input RNA pool
Reading: higher = stronger binding
Construct (chain): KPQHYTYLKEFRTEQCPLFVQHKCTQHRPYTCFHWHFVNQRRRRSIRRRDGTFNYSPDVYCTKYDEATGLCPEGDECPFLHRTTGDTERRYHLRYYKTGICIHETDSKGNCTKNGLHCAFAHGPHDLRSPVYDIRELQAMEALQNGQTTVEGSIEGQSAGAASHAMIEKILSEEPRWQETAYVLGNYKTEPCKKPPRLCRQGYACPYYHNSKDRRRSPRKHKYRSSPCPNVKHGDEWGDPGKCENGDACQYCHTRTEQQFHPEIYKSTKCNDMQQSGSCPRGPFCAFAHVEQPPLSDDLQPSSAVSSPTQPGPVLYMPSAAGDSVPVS
The bound/input enrichment of `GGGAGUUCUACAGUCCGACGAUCAUUUUCCAGUUUUAACAAAUUUAAGAACCCCAAACUAACAGGCUUAGUGAUGUAAUUGUGUUCCGCCGAGGUACACUUGUGAAUAAGGAGGGUGGGUGGGGUAGAUGUUGCUAACUGCAACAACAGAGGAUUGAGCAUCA` is reported as 1.11 ratio.
The bound/input enrichment of `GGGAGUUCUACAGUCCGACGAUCCUGAUGCCGAUUGUGUACACGCCAACAGUUGGUCUUGCCUGCUGUCAAUAUGGGCACAUCUUCCGGAGACCUAAGGGAUUGUUUAUUUCAAUCUCAGACAGAGGUCAUGUUAGAUCAAUUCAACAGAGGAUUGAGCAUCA` is reported as 0.189 ratio.
The bound/input enrichment of `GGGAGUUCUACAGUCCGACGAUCUCCAGGACUCUCAAGCUGGCAUCAUAUUAUUUGUUAUUUAAAAGACACAAUUAUUUCCGGCCGAUCUUUUUUUUUAAUGAGGUGGGGUAAGGCUGUGACUUUUGAUCUAAACAAAAGAUCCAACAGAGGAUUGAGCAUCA` is reported as 0.164 ratio.
With `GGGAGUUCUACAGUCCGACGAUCGUACAGACUGCCUCAAAACAGGUUGAUGGUGAUUACGUCGUGUCUGAAUGGAGUGAGAUUACCGAAUUCUGUACAGCAGAUUACUCCAAAGUUCAUCUAACACAGCUGCUGGAGAAGGCUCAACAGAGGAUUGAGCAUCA` the bound/input enrichment was 0.238 ratio.
`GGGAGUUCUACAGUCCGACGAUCAGAAAUGGGUCGCUCCAAUUCUAGAUCACAUUCUUCAAGGUCAAAGUCUAGAUCACAGUCCCGUUCUCGAUCAAGAUCAAGAUCUCAUUCUAGAAAGAAGCGAUACAGUUCUAGGUCUCGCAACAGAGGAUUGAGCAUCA` gave a bound/input enrichment of 0.163 ratio.
The bound/input enrichment of `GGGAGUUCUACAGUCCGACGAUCCUGAAGUCUCUGCGGGAACUCAAUGUCCGAAGAAAUUACCUUAAGGUUUUACCACCAGAGCCCGCCGAUCUCCCCUUGGUAAAGUUUGACUUUUCCUGCAACAAGGUGCUGGUGAUCCCCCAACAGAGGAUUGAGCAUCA` is reported as 0.142 ratio.
For `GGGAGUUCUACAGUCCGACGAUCAUCCAUUCUACUCCUUGGAAAUGCCUAUCAGAUGCGAGCUGUUUGAUCAAAACCUGAAGCCCGCUCCCGAGGUGGCAGAGAAGGCUGGCACUUUUGGACCUGGGUCAUAGGAUGAACCUGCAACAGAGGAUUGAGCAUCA`, the bound/input enrichment was 0.134 ratio.
`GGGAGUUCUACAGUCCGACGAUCUGUCAGGUGGCUUAUUUGUGGAUGCCAUGAUUGAUGAUGUUCAUUUUAAGCUCUUACCUACCGUACAAGUACAUGAUGCUACUGAAUAUUUUUCCACUUGGAAACUGUGAGCUGGUUGUUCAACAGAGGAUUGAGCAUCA` has a bound/input enrichment of 0.174 ratio.
The bound/input enrichment of `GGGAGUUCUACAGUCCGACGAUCAGCACAACCCCAGCAAAGCUAAGAAAUCCUUGUACAAGUGAACAAAACUGCACCAGCCCAUUCCGCUACAAAAAUGUGCUUAGUCUUACUGACAGAGGAGAGUUUUUCAAUGAACUUGUUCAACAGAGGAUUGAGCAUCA` is reported as 0.295 ratio.
With `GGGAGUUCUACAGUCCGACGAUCGACAGCUUGCUCAGUAACUUGGGGUGCCAGUCUGCCUCUCAUGUAGGGCCCUUCAUCGACCGCUACCGCUGCUUCCAACCAAAGCAGGAGGGGGCCUUCACCUGCUGGUCAGCAGUCACUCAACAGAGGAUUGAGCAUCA` the bound/input enrichment was 0.064 ratio.
With `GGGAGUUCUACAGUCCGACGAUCAUGAUGAAAGGAGAAUUUUAUGUCAUUGAAUAUGCUGCUUGUGACGCUACUUACAAUGAAACCGUCACAUUUGAACGACUUCGGCCUGUCAAUCAAAAUAAAACUGUCAAAAAAAAUACCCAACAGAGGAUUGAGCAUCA` the bound/input enrichment was 0.285 ratio.

Series 2
Target: Sal-like protein 4, full length isoform B (SALL4, Homo sapiens, UniProt Q9UJQ4-2, residues 1-616)
Method: universal PBM
Molecule type: double-stranded DNA, one strand shown
Medium: in vitro
Tested at: not given
Setting: 8-mer, flanks averaged, mean of replicates
Reading: higher = stronger binding
Target sequence (chain): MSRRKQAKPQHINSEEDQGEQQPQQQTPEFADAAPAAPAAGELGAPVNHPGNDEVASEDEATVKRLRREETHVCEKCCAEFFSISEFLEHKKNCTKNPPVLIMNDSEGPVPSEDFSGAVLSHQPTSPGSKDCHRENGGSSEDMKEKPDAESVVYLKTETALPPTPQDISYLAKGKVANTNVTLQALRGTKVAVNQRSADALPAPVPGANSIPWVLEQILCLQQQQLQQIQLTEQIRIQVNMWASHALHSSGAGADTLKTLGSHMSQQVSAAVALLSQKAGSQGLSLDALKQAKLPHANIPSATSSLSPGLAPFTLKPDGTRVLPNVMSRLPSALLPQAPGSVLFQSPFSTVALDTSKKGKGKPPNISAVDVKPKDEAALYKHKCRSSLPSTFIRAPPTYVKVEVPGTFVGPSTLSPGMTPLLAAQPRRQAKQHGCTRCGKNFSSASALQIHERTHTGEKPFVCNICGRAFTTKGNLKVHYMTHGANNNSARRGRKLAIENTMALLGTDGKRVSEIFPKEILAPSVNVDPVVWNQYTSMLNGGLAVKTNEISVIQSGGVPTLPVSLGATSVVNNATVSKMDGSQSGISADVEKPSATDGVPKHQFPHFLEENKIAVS
`CCAATTCA` gave an E-score of 0.169.
`GACCGGAA` gave an E-score of -0.334.
`CAGAACTC` gave an E-score of -0.184.
`GACGACAA` gave an E-score of 0.00895.
`GAGTGAAC` gave an E-score of -0.161.
The E-score of `ATAAAGCG` is reported as 0.254.
The E-score of `CTCTTAAA` is reported as 0.225.
`CATGCGCG` gave an E-score of -0.237.
For `ATGACCCG`, the E-score was -0.158.
`CTCGGGAA` has an E-score of -0.228.
`CCTAGCCA` has an E-score of 0.0071.
For `AGTTGTGG`, the E-score was 0.0838.
`CGGAATGA` has an E-score of -0.108.
The E-score of `AGCTTAAA` is reported as -0.0177.
For `AGGTTATC`, the E-score was 0.0901.
The E-score of `AAAAGATC` is reported as 0.0409.
`AGACGCAC` gave an E-score of -0.0697.

Series 3
Target: ATF7, bZIP domain (human)
Method: DHFR protein complementation
Medium: yeast
Setting: single substitutions, most at no-binding floor
Reference: wild-type JUN-FOS pair
Reading: higher = stronger binding
Parent: JUN, bZIP domain (human); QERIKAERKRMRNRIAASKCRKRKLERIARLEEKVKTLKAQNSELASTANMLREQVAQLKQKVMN; partner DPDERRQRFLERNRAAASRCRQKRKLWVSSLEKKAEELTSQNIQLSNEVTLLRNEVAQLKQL
`V35A` has a binding fitness of -1.31 natural log.
With `L45A` the binding fitness was -1.52 natural log.
`E44S` gave a binding fitness of -1.1 natural log.
For `E32N`, the binding fitness was -1.4 natural log.
With `A57E` the binding fitness was -0.864 natural log.
For `L52I`, the binding fitness was -1.48 natural log.
For `L52W`, the binding fitness was -1.55 natural log.
`R53A` has a binding fitness of -1.36 natural log.
`K39W` has a binding fitness of -1.32 natural log.
`K39E` gave a binding fitness of -0.816 natural log.
The binding fitness of `K36C` is reported as -1.01 natural log.
For `R30T`, the binding fitness was -0.703 natural log.
With `A40Y` the binding fitness was -1.16 natural log.
`V35P` gave a binding fitness of -1.47 natural log.
For `K39S`, the binding fitness was -0.926 natural log.
`L45D` gave a binding fitness of -1.51 natural log.
With `A57P` the binding fitness was -1.38 natural log.
`Q55G` has a binding fitness of -1.39 natural log.
The binding fitness of `M51E` is reported as -0.853 natural log.
`A40P` gave a binding fitness of -1.43 natural log.
`E32D` gave a binding fitness of -1.32 natural log.
`V35S` gave a binding fitness of -1.46 natural log.
For `M51L`, the binding fitness was -0.875 natural log.
The binding fitness of `T37E` is reported as -0.751 natural log.
For `E33T`, the binding fitness was -1.15 natural log.

Series 4
Target: Interferon regulatory factor 5, full length, phosphomimetic (IRF5, Homo sapiens, UniProt Q13568-2, residues 1-514, K96S/S451D/S453D/S456D/S462D)
Method: protein-binding microarray
Molecule type: double-stranded DNA, one strand shown
Medium: in vitro
Tested at: 250 nM
Setting: 60-bp whole probe
Added: salmon DNA 0.4 mg/ml
Reference: random background probes
Reading: higher = stronger binding
Constant ends, left off below: GCCTAGCAC … GTCTTGATTCGCTTGACGCTGCTG
With `TTAGAACTGAGCCTGGATTAGTGCTAG` the log fluorescence was -0.463 z-score.
With `CTAGATCTCAGTTTCGATTAGTGCTAG` the log fluorescence was 9.07 z-score.
`GGCGGTATCCTTTTCCTGACGTGCTAG` has a log fluorescence of 0.26 z-score.
With `TCAGTTCTTAGCTTGGGACTGTGCTAG` the log fluorescence was -0.0869 z-score.
`GACGAACTGAGTCTCGAGGCGTGCTAG` has a log fluorescence of -0.361 z-score.
`TTACGACTGCTTTTCCTTTAGTGCTAG` gave a log fluorescence of 1.39 z-score.
`GACGGTTTCGGACAGGGGACGTGCTAG` gave a log fluorescence of 4.03 z-score.
The log fluorescence of `GACGTTCTCGGTATCGGGACGTGCTAG` is reported as 1.51 z-score.
For `GACGGTATCGGGACTGGTGACGTGCTA`, the log fluorescence was 1.04 z-score.
For `TCAATTTGGCATATCTAACTGTGCTAG`, the log fluorescence was 0.302 z-score.
For `ATGTCTTCCCCTCTCTTTCCGTGCTAG`, the log fluorescence was 0.231 z-score.
For `GACGATCCCAGTATCGAGACGTGCTAG`, the log fluorescence was 1.74 z-score.
`TTAGCTCTCCTTATCCTTTAGTGCTAG` has a log fluorescence of 0.223 z-score.
`GAAGATATCGGGACTGGAGACGTGCTA` has a log fluorescence of 0.531 z-score.
For `TTAGGGATCGGTCTCGGTTAGTGCTAG`, the log fluorescence was 0.373 z-score.
`GGAAATATTTACCTCTCACGGTGCTAG` gave a log fluorescence of 0.352 z-score.
The log fluorescence of `GACGGACTCGGGACTGGGGACGTGCTA` is reported as -0.457 z-score.
The log fluorescence of `CCCACCATCTAGTTCTGCTTGTGCTAG` is reported as 0.00717 z-score.
`CAGAATCTCTCATGTTACATTGTGCTA` gave a log fluorescence of 0.36 z-score.
With `GACGGTTTCGGGTTTCGGGAAGTGCTA` the log fluorescence was 8.69 z-score.
The log fluorescence of `GACGGTATCGGGTATCGGCACGTGCTA` is reported as 3.5 z-score.
For `GAGGATATCGGGTTTCGAGACGTGCTA`, the log fluorescence was 2.66 z-score.

Series 5
Target: Histone acetyltransferase KAT6A, winged helix 1, GST fusion (KAT6A, Homo sapiens, UniProt Q92794, residues 1-85)
Method: protein binding microarray
Molecule type: double-stranded DNA, one strand shown
Medium: in vitro
Tested at: not given
Setting: 8-mer, flanks averaged, mean of 2 arrays, mostly near background
Reference: not given
Reading: higher = stronger binding
Construct (chain): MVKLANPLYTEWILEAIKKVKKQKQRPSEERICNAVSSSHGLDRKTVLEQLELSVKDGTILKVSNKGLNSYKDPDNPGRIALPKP
`CTGAGGAC` gave an E-score of -0.164.
The E-score of `GTGTAGAA` is reported as -0.132.
With `GCTTGTAC` the E-score was 0.0974.
`CCGCATTA` gave an E-score of 0.274.
With `CTGTCGCC` the E-score was 0.214.
The E-score of `GCAGCAGC` is reported as -0.0306.
The E-score of `CCGGAAGA` is reported as 0.121.
With `CGCGGGAA` the E-score was 0.398.
With `CAGGCACA` the E-score was -0.213.
The E-score of `GCGTCGAA` is reported as 0.213.
`ACAATGGC` gave an E-score of -0.0686.
For `GGGGATTA`, the E-score was -0.0443.
The E-score of `AAACTATA` is reported as 0.00826.
`CTGAGGGA` has an E-score of -0.17.
For `CCTGAGAC`, the E-score was -0.197.
`ATGTATCG` gave an E-score of -0.0772.
